Assay results gathered from unrelated publications.
Lines come from different studies, so protocols differ. ± gives the spread as reported.
Sequence of UniProt Q9JLB5 (whole entry, looked up): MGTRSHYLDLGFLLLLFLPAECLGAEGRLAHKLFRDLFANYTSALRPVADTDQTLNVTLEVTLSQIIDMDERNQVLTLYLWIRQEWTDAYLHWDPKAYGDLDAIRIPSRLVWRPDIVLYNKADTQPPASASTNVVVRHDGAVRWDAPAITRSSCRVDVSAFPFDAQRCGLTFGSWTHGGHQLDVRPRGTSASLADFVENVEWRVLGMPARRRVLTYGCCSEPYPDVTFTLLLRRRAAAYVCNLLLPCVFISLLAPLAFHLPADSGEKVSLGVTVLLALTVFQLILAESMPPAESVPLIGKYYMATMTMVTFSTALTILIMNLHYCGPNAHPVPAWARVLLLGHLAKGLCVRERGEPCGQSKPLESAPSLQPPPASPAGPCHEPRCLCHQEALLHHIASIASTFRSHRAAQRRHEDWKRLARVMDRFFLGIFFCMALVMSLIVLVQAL
Sequence of UniProt P49327 (whole entry, looked up): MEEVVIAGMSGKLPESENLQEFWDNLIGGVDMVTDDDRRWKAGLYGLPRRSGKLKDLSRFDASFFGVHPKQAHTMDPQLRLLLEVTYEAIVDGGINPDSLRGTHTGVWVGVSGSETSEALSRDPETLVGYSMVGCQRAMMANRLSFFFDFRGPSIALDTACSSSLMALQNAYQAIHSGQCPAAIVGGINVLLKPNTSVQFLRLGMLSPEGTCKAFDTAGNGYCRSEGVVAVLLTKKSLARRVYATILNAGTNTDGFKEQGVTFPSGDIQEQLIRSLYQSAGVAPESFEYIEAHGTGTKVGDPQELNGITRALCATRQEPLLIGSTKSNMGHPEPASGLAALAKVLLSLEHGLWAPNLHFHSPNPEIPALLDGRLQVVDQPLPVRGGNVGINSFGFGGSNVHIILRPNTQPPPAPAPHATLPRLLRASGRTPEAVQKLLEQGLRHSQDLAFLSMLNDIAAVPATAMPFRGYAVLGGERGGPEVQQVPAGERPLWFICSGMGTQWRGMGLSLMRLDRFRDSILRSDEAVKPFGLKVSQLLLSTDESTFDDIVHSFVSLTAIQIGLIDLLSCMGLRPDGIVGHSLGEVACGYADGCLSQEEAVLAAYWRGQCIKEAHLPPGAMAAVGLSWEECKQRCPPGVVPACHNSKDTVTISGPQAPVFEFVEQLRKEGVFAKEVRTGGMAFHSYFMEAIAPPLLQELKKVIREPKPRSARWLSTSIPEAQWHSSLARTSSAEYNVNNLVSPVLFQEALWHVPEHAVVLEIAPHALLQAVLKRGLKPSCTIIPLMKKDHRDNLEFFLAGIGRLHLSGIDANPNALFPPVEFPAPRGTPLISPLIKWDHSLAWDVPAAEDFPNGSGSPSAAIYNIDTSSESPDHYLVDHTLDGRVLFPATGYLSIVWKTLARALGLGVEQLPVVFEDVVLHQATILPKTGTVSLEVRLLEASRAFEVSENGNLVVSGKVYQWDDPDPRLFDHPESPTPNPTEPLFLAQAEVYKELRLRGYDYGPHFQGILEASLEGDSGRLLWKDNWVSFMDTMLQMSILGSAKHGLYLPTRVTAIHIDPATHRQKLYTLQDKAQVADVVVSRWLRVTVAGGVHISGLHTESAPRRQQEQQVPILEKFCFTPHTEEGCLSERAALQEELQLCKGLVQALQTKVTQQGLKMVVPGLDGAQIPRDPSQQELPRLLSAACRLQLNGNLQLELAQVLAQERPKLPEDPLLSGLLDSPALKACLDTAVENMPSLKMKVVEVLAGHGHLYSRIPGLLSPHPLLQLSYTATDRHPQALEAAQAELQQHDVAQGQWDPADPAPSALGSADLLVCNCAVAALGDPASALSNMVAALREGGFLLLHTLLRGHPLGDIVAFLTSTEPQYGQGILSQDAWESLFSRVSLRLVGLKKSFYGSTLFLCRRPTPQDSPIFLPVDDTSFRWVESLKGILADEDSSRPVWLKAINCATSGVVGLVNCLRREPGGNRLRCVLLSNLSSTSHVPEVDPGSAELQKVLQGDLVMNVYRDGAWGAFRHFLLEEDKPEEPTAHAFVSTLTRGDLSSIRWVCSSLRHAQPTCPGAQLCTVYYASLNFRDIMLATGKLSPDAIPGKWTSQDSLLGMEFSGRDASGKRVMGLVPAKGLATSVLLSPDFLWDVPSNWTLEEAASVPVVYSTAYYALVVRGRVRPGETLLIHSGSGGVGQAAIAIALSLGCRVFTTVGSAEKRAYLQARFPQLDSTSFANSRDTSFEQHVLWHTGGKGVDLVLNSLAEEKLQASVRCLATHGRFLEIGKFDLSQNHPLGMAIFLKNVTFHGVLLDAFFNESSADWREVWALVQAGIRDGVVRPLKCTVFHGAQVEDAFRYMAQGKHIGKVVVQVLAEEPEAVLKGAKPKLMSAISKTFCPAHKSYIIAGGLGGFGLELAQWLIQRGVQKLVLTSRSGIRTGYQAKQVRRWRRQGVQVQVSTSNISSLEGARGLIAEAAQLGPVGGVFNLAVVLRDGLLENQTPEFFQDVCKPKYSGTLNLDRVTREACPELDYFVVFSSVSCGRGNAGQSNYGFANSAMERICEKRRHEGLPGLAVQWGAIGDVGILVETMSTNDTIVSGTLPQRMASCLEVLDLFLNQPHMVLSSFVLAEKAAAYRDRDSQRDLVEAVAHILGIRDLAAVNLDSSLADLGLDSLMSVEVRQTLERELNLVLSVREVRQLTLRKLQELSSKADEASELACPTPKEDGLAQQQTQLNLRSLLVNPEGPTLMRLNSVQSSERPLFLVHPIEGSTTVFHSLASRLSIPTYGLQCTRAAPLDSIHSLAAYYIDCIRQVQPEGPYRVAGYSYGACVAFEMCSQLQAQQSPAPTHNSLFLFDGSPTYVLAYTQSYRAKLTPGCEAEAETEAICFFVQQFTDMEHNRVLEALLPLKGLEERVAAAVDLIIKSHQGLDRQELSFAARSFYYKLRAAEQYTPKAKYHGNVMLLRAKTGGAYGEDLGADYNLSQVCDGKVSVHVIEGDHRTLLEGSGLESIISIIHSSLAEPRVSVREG
Sequence of UniProt Q96G91 (whole entry, looked up): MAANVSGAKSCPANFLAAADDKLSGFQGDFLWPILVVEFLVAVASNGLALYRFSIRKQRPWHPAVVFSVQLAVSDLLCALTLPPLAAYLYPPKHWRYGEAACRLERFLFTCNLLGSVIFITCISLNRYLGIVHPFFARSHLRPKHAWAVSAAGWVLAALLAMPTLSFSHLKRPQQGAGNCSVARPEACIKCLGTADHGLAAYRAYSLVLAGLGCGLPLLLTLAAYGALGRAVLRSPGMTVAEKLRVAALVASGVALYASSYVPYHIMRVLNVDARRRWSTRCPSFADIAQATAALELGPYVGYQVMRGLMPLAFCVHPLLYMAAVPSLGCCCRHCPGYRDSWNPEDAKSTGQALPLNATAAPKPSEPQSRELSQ
Sequence of UniProt Q13224 (whole entry, unmodified, looked up): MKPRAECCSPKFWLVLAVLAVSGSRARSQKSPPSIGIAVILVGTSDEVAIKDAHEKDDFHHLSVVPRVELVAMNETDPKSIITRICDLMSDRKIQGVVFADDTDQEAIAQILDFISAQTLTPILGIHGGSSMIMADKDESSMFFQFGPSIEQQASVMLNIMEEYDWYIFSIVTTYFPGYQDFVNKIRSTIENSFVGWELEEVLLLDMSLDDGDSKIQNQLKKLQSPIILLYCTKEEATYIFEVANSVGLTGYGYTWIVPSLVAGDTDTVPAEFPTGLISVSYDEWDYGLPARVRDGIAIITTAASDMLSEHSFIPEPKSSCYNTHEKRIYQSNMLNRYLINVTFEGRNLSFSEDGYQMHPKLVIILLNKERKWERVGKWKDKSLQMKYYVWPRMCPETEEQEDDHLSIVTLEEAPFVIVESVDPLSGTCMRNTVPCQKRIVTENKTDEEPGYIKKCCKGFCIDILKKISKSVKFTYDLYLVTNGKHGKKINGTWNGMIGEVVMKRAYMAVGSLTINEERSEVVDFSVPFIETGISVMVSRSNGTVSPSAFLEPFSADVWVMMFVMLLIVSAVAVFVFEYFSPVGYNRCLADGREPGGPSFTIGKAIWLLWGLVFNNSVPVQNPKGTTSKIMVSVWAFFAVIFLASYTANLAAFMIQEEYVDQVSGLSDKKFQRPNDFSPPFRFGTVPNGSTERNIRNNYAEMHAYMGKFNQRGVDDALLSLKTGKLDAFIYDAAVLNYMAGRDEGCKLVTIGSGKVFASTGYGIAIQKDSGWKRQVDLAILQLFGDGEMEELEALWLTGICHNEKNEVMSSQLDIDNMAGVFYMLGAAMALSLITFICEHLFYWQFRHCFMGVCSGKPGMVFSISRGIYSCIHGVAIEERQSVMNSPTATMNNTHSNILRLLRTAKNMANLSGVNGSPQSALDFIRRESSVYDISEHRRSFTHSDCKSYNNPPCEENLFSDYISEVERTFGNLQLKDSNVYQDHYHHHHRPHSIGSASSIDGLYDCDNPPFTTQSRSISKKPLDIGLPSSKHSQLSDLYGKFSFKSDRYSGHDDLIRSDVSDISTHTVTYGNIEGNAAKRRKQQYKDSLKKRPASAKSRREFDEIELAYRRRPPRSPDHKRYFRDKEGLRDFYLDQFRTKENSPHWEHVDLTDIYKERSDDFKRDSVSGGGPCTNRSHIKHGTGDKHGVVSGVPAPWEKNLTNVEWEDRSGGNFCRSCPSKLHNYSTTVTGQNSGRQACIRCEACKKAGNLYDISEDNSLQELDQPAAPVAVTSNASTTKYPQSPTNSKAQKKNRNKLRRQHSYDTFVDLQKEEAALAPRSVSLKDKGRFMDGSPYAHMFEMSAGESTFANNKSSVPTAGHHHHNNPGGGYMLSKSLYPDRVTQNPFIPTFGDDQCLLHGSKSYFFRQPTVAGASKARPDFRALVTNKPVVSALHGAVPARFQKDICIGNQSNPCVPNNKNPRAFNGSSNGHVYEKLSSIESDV
Sequence of UniProt P00942 (whole entry, unmodified, looked up): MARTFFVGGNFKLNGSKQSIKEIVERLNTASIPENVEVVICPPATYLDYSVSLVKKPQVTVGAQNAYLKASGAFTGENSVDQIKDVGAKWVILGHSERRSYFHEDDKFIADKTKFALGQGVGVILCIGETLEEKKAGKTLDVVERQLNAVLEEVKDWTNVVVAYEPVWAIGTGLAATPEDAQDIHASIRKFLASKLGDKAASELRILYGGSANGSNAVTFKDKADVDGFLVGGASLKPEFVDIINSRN

For `COc1cc2c(Oc3ccc4[nH]c(C)cc4c3F)ccnc2cc1OCC1(N)CC1`, “grade 3 TBIL elevation” read 0% (paediatric recurrent refractory sarcoma; 8 mg).
`CC(C)[C@@H](O)CC[C@@H](C)[C@H]1CC[C@H]2[C@@H]3CC=C4C[C@@H](O)CC[C@]4(C)[C@H]3CC[C@]12C` has a current response of 452 ± 23% (Glutamate NMDA receptor; GRIN1/GRIN2B (GRIN1/GRIN2B, Homo sapiens, UniProt Q05586+Q13224, F550A); positive allosteric modulator, two-electrode voltage clamp; Xenopus oocytes expressing GluN2B-F550A; 10 µM, 0.02% cremophor, with: 100 µM glutamate and glycine; reference: without compound).
For `COc1ccc(N2C(=O)N(c3c(C)cccc3Cl)Cc3cnc(Nc4ccc(C5CCN(C)CC5)cc4OC)nc32)nc1`, the inhibition was 2.53% (Serine/threonine-protein kinase LATS2 (LATS2, Homo sapiens, UniProt Q9NRM7); kinase activity; 0.5 µM).
`O=C(NNC(=O)c1csnn1)c1ccc(Cl)cc1` has a remaining activity of 5.23% (Acetyl-CoA synthetase (Cryptococcus neoformans, UniProt J9VFT1); 25 µM).
`[2H]c1c([2H])c([C@]2([2H])CCCN2C(=O)C(C)(C)Oc2ccc3cn[nH]c3c2)c([2H])c([2H])c1C([2H])([2H])[2H]` gave a remaining binding of 91% (Cyclin-dependent kinase 11A (CDK11A, Homo sapiens, UniProt Q9UQ88); KINOMEscan; 1 µM; reference: DMSO control).
`CC[C@H](C)[C@@H]1NC(=O)[C@@H]2CCCN2C(=O)[C@H](CC(C)C)NC(=O)[C@H](CC(C)C)NC(=O)CNC(=O)[C@@H](NC(=O)[C@@H](NC(=O)[C@H](CC(=O)O)NC(=O)CNC(=O)[C@@H](NC(=O)[C@H](C)NC(=O)CNC(=O)[C@H](CCCCN)NC(=O)[C@H](CC(C)C)NC(=O)[C@H](CC(C)C)NC(=O)[C@H](CCCCN)NC(=O)CNC(=O)[C@@H](NC(=O)[C@@H](N)CC(C)C)C(C)C)C(C)C)C(C)C)CSSC[C@@H](C(=O)O)NC1=O`: “log2 fold change” -3.47 (RNA-seq, item: Cd69 mRNA; mouse traumatic brain injury, frontal cortex and hippocampus; dose not given; reference: TBI plus compound vs TBI).
`COc1cc(N)c(Cl)cc1C(=O)NC1CN2CCC1CC2` (stereo not drawn): “log2 fold change” 0.124 (Trace amine-associated receptor 1 (TAAR1, Homo sapiens, UniProt Q96RJ0); β-arrestin recruitment, TANGO luminescence, item: TA1; concentration not given; reference: basal luminescence).
With `COc1cc(Nc2ncc(F)c(Nc3ccc4c(n3)NC(=O)C(C)(C)O4)n2)cc(OC)c1OC` the IC50 was > 10 µM (C-X-C chemokine receptor type 4 (CXCR4, Homo sapiens, UniProt P61073)).
For `CC[C@H](C)[C@H](NC(=O)[C@H](Cc1ccccc1)NC(=O)[C@H](CCC(=O)O)NC(=O)[C@H](CCCNC(=N)N)NC(=O)[C@H](C)NC(=O)[C@H](C)NC(=O)[C@H](CCC(N)=O)NC(=O)[C@H](CCC(=O)O)NC(=O)[C@H](CCC(=O)O)NC(=O)[C@H](CC(C)C)NC(=O)[C@H](Cc1ccc(O)cc1)NC(=O)[C@H](CO)NC(=O)[C@H](CO)NC(=O)[C@@H](NC(=O)[C@H](CC(=O)O)NC(=O)[C@H](CO)NC(=O)[C@@H](NC(=O)[C@H](Cc1ccccc1)NC(=O)[C@@H](NC(=O)CNC(=O)[C@H](CCC(=O)O)NC(=O)[C@H](C)NC(=O)CCc1c[nH]cn1)[C@@H](C)O)[C@@H](C)O)C(C)C)C(=O)N[C@@H](C)C(=O)N[C@@H](Cc1c[nH]c2ccccc12)C(=O)N[C@@H](CC(C)C)C(=O)N[C@H](C(=O)N[C@@H](CCCNC(=N)N)C(=O)NCC(=O)N[C@@H](CCCNC(=N)N)C(=O)N[C@@H](CCCCNC(=O)COCCOCCNC(=O)COCCOCCNC(=O)CC[C@H](NC(=O)CCCCCCCCCCCCCCCCC(=O)O)C(=O)O)C(=O)NCC(=O)NCC(=O)N[C@@H](CO)C(=O)N[C@@H](CCCCNc1c(NCCCCCN(O)C(=O)CCC(=O)NCCCCCN(O)C(=O)CCC(=O)NCCCCCN(O)C(C)=O)c(=O)c1=O)C(=O)O)C(C)C` [zirconium-89 labelled], the tissue uptake was 0.15 %ID/g (rat, duodenum; sc, 3 nmol/kg, 4 h, ex vivo).
Under “recovery time constant”, `COc1ccc2c3c([nH]c2c1)CCN(C)CC3.O=C(O)/C=C/C(=O)O` is recorded as 19.3 ± 1.2 s (Nicotinic acetylcholine receptor alpha9/alpha10 (Rattus norvegicus, UniProt P43144+Q9JLB5); ion current, inhibitor, two-electrode voltage clamp; Xenopus laevis oocytes; 3 µM, rat receptor, with: acetylcholine 100 µM).
The tissue uptake of `C[C@@H](O)[C@@H](CO)NC(=O)[C@@H](CCCNC(=N)N)NC(=O)[C@@H]1CCCN1C(=O)[C@@H]1CSSC[C@H](NC(=O)[C@H](Cc2ccccc2)NC(=O)CN2CCN(CC(=O)O)CCN(CC(=O)O)CCN(CC(=O)O)CC2)C(=O)N[C@@H](Cc2ccc(O)cc2)C(=O)N[C@@H](Cc2ccccc2)C(=O)N[C@@H](CCC(N)=O)C(=O)N[C@@H](CC(N)=O)C(=O)N1` [gallium-68 labelled] is reported as 0.06 %ID/g (Wistar rat, healthy, urinary bladder; intravenous, 8 MBq, 120 min, mean).
For `CN1CCN(c2cc(-c3ccncc3)c(-c3ccc4ccccc4c3)nn2)CC1`, the activation was -0.1% (P2Y purinoceptor 11 (P2RY11, Homo sapiens, UniProt Q96G91); agonist, FLIPR; 12.5 µM).
The remaining binding of `C[C@H]1CN(c2n[nH]c3nc(N[C@H]4CC[C@H](NS(=O)(=O)CCC(F)(F)F)CC4)ncc23)CCO1` is reported as 0.97 (Mitogen-activated protein kinase 14 (MAPK14, Homo sapiens, UniProt Q16539); Kinobeads competition; HEK293, K562, placenta lysate; 0.032 µM, unit not given; reference: vehicle).
The Ki ratio of `O=C(O)COP(=O)(O)O` is reported as 3.2 (TPI1 (Saccharomyces cerevisiae, UniProt P00942, S211G); enzyme activity, competitive inhibitor, GPDH/NADH-coupled; pH 4.9, 25 °C, ionic strength 0.1 NaCl, with: glyceraldehyde 3-phosphate substrate; reference: mutant over wild type).
With `O=C(c1ccc(Cl)cc1)N1CCN2C(=O)N(OC(=O)N3CCOc4ccccc43)C(=O)C2C1` (stereo not drawn) the median ratio was 1.2 (Fatty acid synthase (FASN, Homo sapiens, UniProt P49327); enzyme activity, inhibitor, MS-based ABPP; SW-620 conditioned medium; 10 µM, 1 h, 37 °C; reference: compound over DMSO, lower = stronger inhibition).

Some of these lines once more:
With `COc1cc(Nc2ncc(F)c(Nc3ccc4c(n3)NC(=O)C(C)(C)O4)n2)cc(OC)c1OC` the IC50 was > 10 µM (C-X-C chemokine receptor type 4 (CXCR4, Homo sapiens, UniProt P61073)).
With `O=C(c1ccc(Cl)cc1)N1CCN2C(=O)N(OC(=O)N3CCOc4ccccc43)C(=O)C2C1` (stereo not drawn) the median ratio was 1.2 (Fatty acid synthase (FASN, Homo sapiens, UniProt P49327); enzyme activity, inhibitor, MS-based ABPP; SW-620 conditioned medium; 10 µM, 1 h, 37 °C; reference: compound over DMSO, lower = stronger inhibition).
For `COc1ccc(N2C(=O)N(c3c(C)cccc3Cl)Cc3cnc(Nc4ccc(C5CCN(C)CC5)cc4OC)nc32)nc1`, the inhibition was 2.53% (Serine/threonine-protein kinase LATS2 (LATS2, Homo sapiens, UniProt Q9NRM7); kinase activity; 0.5 µM).
